Results pooled from the literature.
Lines come from different studies, so protocols differ. Several values in a cell are separate wells, animals, samples, runs or records. ± gives the spread as reported.
Dipeptidyl peptidase 8: Dipeptidyl peptidase 8 (Homo sapiens, UniProt Q6V1X1)
STING1 H232R: Stimulator of interferon genes protein (STING1, Homo sapiens, UniProt Q86WV6, H232R)
TARDBP aggregated: TAR DNA-binding protein 43, aggregated (TARDBP, Homo sapiens, UniProt Q13148)
MAPK8: Mitogen-activated protein kinase 8 (MAPK8, Homo sapiens, UniProt P45983)
Cnr2: Cannabinoid receptor 2 (Cnr2, Mus musculus, UniProt P47936)
KPNB1: Importin subunit beta-1 (KPNB1, Homo sapiens, UniProt Q14974)

With `N#Cc1ccc(-c2ccc(/C=N/OCc3ccc(-c4nc5cc(-c6ccccc6)ccn5c4Nc4ccc(C(=O)O)cc4)cc3)cc2)nc1` the selectivity ratio was 74 (TDP2 (Homo sapiens, UniProt O95551); relative to: TDP1 IC50 over TDP2 IC50).
`CCC1(CC)C(=O)N(c2cccc(CN3CCN(Cc4ccc(Br)c5ccccc45)CC3)c2)C1=O.O=C(O)C(F)(F)F` has a selectivity ratio of > 13 (Dipeptidyl peptidase 8; inhibitor; together with: GP-AMC substrate; relative to: Ki' DPP9 over Ki' DPP8).
With `CC(C)C[C@@H]1NC(=O)[C@H](Cc2ccccc2)NC(=O)CSC[C@@H](C(=O)NCC(N)=O)NC(=O)[C@H](Cc2ccc(O)cc2)NC(=O)[C@H](C(C)C)NC(=O)[C@H](Cc2ccccc2)NC(=O)[C@H](Cc2ccc(O)cc2)NC(=O)[C@H](Cc2ccccc2)NC(=O)[C@H](CC(=O)O)NC(=O)[C@H](CC(N)=O)NC(=O)[C@H](CC(N)=O)NC(=O)[C@H](Cc2ccc(O)cc2)NC(=O)[C@H](C(C)C)NC(=O)[C@H](Cc2ccccc2)NC1=O` the ΔTm was 0.2 °C (STING1 H232R; thermal stability, DSF; 100 µM).
`C[C@@H]1C[C@H](Nc2ccccc2)c2cc(F)ccc2N1C(=O)c1ccc(C#N)cc1` has a pIC50 Z-score of 1.17 (Ecdysone receptor (Aedes albopictus, UniProt Q9U3Y4); ligand binding, inhibitor; intact cells; together with: [3H]ponasterone A; direction not given).
`O=C1c2sc(-c3ccc(N4CCC(F)C4)nc3F)nc2CCN1c1cccnc1` (stereo not shown) has a specific binding of 69.6 nM (TARDBP aggregated; saturation autoradiography; human, FTLD-TDP type A brain sections; 4.87 nM).
The fraction bound of `CN(C)c1ccc(-n2cc(COC(=O)[C@]3(C)C=C(C(=O)OC(C)(C)C)C(=O)CC3)nn2)cc1` is reported as 0.649 (MAPK8; D-peptide binding, inhibitor, FP peptide displacement; 12.5 µM; lower is stronger displacement).
The iBAQ abundance of `N#CN1CC[C@H](C(=O)Nc2nc3c(s2)CN(C(=O)Cn2cc(COCCOCCOCCOCCNC(=O)CCCC[C@@H]4SC[C@@H]5NC(=O)N[C@@H]54)nn2)CC3)C1` is reported as 2.43e+08 (Isochorismatase domain-containing protein 1 (Homo sapiens, UniProt Q96CN7); probe binding, affinity probe, neutravidin pull-down LC-MS/MS; HEK293T, cell lysate; 5 µM, 1 h, mean of three replicates, unit not given; higher = more pulled down).
`CCOC(=O)C(CC)(CCCSCCOCCN)NC(=O)c1ccc(C2CC2)c(Cc2ccc(F)cc2)n1` (stereo not shown) has an Emax of 92% (Cnr2; cAMP, agonist).
With `COC(=O)[C@@]1(Cc2ccccc2)C=C(C(=O)OC(C)(C)C)C(=O)CC1` the fraction bound was -0.0761 (MAPK8; D-peptide binding, inhibitor, FP peptide displacement; 62.5 µM; lower is stronger displacement).
`Cc1cn(CC(=O)N(CC(=O)N[C@H]2CCC[C@@H]2N(CC(=O)N[C@H]2COC[C@@H]2N(CC(=O)N[C@H]2COC[C@@H]2N(CC(=O)N[C@H]2COC[C@@H]2N(CC(=O)NCCOCCOCC(N)=O)C(=O)Cn2cnc3c(N)ncnc32)C(=O)Cn2cc(C)c(=O)[nH]c2=O)C(=O)Cn2cnc3c(N)ncnc32)C(=O)Cn2cnc3c(=O)[nH]c(N)nc32)[C@H]2CCC[C@@H]2NC(=O)CN(C(=O)Cn2cnc3c(=O)[nH]c(N)nc32)[C@H]2CCC[C@@H]2NC(=O)CN(C(=O)Cn2cc(C)c(=O)[nH]c2=O)[C@H]2COC[C@@H]2NC(=O)CN(C(=O)Cn2cnc3c(N)ncnc32)[C@H]2COC[C@@H]2NC(=O)CN(C(=O)Cn2cnc3c(=O)[nH]c(N)nc32)[C@H]2COC[C@@H]2N)c(=O)[nH]c1=O` has a ΔG of -19.1 ± 0.3 kcal/mol (complementary RNA; duplex formation, UV melting curve fit; PBS; 1 µM, 298 K).
For `O=C(c1ccncc1)N1CCN(CC(OCc2ccc3ccccc3c2)c2ccc(Cl)cc2Cl)CC1` (stereo not shown), “activity vs control” read 112% (ULK1 (Homo sapiens, UniProt O75385); enzyme activity, inhibitor, ADP detection; 0.1 µM).
For `CC[C@H](C)[C@@H]1NC(=O)[C@H](Cc2c[nH]c3ccccc23)NC(=O)[C@H](C)NC(=O)[C@H](Cc2ccc(O)cc2)NC(=O)CNC(=O)[C@H](Cc2ccccc2)N(C)C(=O)[C@H](C)N(C)C(=O)[C@H](Cc2ccc(O)cc2)NC(=O)[C@H](C(C)C)NC(=O)[C@H](CC(C)C)NC(=O)[C@H](Cc2ccccc2)NC(=O)CSC[C@@H](C(=O)NCC(N)=O)NC1=O`, the ΔTm was 0.21 °C (STING1 H232R; thermal stability, DSF; 100 µM).
`CCOC(=O)[C@@](CC)(CCCSCCOCCOCCNC(=O)OC(C)(C)C)NC(=O)c1ccc(C2CC2)c(Cc2ccc(F)cc2)n1` has an Emax of 44% (Cnr2; cAMP, agonist).
`Cn1c(=O)n(C2CCC(=O)NC2=O)c2ccc(C3CCN(CC(=O)Nc4cccc(CS(=O)(=O)N5CC[C@H](Nc6cccc(-c7sc(C(=O)O)c(OCC(=O)O)c7Cl)c6)CC5(C)C)c4)CC3)cc21` (stereo partly shown): “BLI binding response” 0.571 a.u. (PTPN2 (Homo sapiens, UniProt P17706, E41K/R35E/R43E); degrader, bio-layer interferometry; 125 nM; higher = more binding).
`CCCC1(CCC)C(=O)N(c2cccc(CN3CCN(Cc4ccc(Br)cc4)CC3)c2)C1=O` — result for “activity vs control”: 62% (Dipeptidyl peptidase 8; enzyme activity, inhibitor; 5 µM).
`O=[N+]([O-])c1cc(Br)cc([N+](=O)[O-])c1NS(=O)(=O)c1ccc(Br)cc1` — result for “HAB1 phosphatase activity”: 0.084 a.u. and 0.089 a.u. and 0.085 a.u. (PYL10, with HAB1 (Arabidopsis thaliana, UniProt Q8H1R0); antagonist; 40 µM, together with: ABA 5 µM; higher = more HAB1 activity).
With `O=C1c2sc(-c3ccc(N4CCC(CO)CC4)nc3F)nc2CCN1c1cccnc1` the SPR response was 2.25 RU (TARDBP aggregated; binding, surface plasmon resonance; brain-derived TDP-43 aggregates; 18.8 nM).
For `CC(C)(C)OC(=O)C1=C[C@@](C)(C(=O)OCC#Cc2ccncc2)CCC1=O`, the fraction bound was 0.117 (MAPK8; D-peptide binding, inhibitor, FP peptide displacement; 200 µM; lower is stronger displacement).
`CC(C)Oc1cc(Cl)ccc1CNc1cc(-c2ccccc2)nc2ncnn12` has a cAMP luminescence of 45200 a.u. and 43400 a.u. and 34100 a.u. and 46700 a.u. (GPR3 (Homo sapiens, UniProt P46089, L136A); cAMP level, cAMP GloSensor; 1 µM; higher = more cAMP).
`CCCCCC=CC=C1C(=O)C=CC1CC=CCCCC(=O)O` (stereo not shown) — result for “isoTOP-ABPP competition ratio”: 1.5 (KPNB1; competitive isoTOP-ABPP; Ramos soluble proteome; 100 µM, together with: iodoacetamide probe; relative to: DMSO over compound-treated, higher = stronger cysteine blockade).
Under “Pearson correlation coefficient”, `CC1=C(/C=C/C(C)=C\C=C\C(C)=C\C=O)C(C)(C)CCC1` is recorded as 0.456 ± 0.01 (Rhodopsin (RHO, Homo sapiens, UniProt P08100, T17M); ER retention, co-localization with calnexin; COS-7 transfected T17M; 10 µM, mononucleated cells).
`Cc1cc(C)cc(COc2cc3c(cc2OCc2cc(C)cc(C)c2)C2CC(O)(Cc4cn(CCOCCOCCNC(=O)CCCCC5SCC6NC(=O)NC65)nn4)CC(C)N2CC3)c1` (stereo not shown) has an SILAC ratio of 3.61 (Importin-5 (Homo sapiens, UniProt O00410); biotinylated probe pull-down, measured: IPO5; 10 µM probe; relative to: heavy over light).
`O=C(NC[C@@H](Cc1ccc(F)cc1)N1CCC(O)(C(F)(F)F)CC1)C1(c2ccc(Cl)cc2)CCCC1`: activity “inactive” (TRPA1 (Homo sapiens, UniProt O75762, I946M); concentration not given).
`Cc1cc(NC(=O)[C@H](O)c2cc(F)cc(F)c2)ccc1-c1cnc(N)c(C(=O)NC(C)C)c1` gave a remaining binding of 73% (PIK3C2B (Homo sapiens, UniProt O00750); binding, competition with immobilised ligand; 1 µM).
For `C[Si](C)(C)C[C@@H](CN)CC(=O)O`, the inhibition was 2% (GALR1 (Homo sapiens, UniProt P47211); enzyme activity, inhibitor; 75 µM).
`CCCCCCCCCCCCC/C=C/C=O` — result for “isoTOP-ABPP competition ratio”: 1.3 (Elongation factor 2 (EEF2, Homo sapiens, UniProt P13639); competitive isoTOP-ABPP; proteome, soluble, MDA-MB-231; 100 µM, together with: iodoacetamide probe; relative to: DMSO over compound-treated, higher = stronger cysteine blockade).
For `C=C1CC2(C(=O)OC)C=C(C(=O)OC(C)(C)C)C(=O)C1C2` (stereo not shown), the fraction bound was 1.79e-16 (MAPK8; D-peptide binding, inhibitor, FP peptide displacement; 1000 µM; lower is stronger displacement).
`COC(=O)[C@@]1(C)C=C(C(=O)Nc2cccc(C(=O)Nc3ccc(Nc4nccc(-c5cccnc5)n4)c(C)c3)c2)C(=O)CC1` has a remaining activity of 0.277 (Mitogen-activated protein kinase 8, phosphorylated (MAPK8, Homo sapiens, UniProt P45983); enzyme activity after dialysis, inhibitor; 10 µM, 4 days, unit not given; relative to: no inhibitor).
For `O=C(CN(Cc1ccc2c(c1)OCO2)Cc1ccc2c(c1)OCO2)NO`, the remaining activity was 85 ± 5% (Astacin-like metalloendopeptidase (Astl, Mus musculus, UniProt Q6HA09); enzyme activity, inhibitor, fluorogenic; 0.25 µM).
Under “isoTOP-ABPP competition ratio”, `CCCCCC(O)/C=C/C=O` (stereo not shown) is recorded as 1.3 (KPNB1; competitive isoTOP-ABPP; Ramos soluble proteome; 100 µM, together with: iodoacetamide probe; relative to: DMSO over compound-treated, higher = stronger cysteine blockade).
`C/C1=C\CC/C(C)=C/CC(C)(C)/C=C/C1`: “remaining current fraction” 0.51 ± 0.03 (Trpv1 (Rattus norvegicus, UniProt O35433, S512A/T550A/Y511A); inhibitor, outside-out patch clamp; 10 µM, vanilloid-site triple mutant, together with: pH 5.5 activation).
`C#CCOC(=O)[C@]1(C)C=C(C(=O)OC(C)(C)C)C(=O)CC1` — result for “normalized kinase activity”: 0.64 and 0.561 and 0.789 (MAPK1 (Homo sapiens, UniProt P28482); enzyme activity, D-SENSOR; 14.81 µM, single replicate).
The TΔS° of `CC(/C=C/C(=O)NO)=C\[C@@H](C)C(=O)c1ccc(N(C)C)cc1` is reported as 0.6 kcal/mol (HDAC8 (Homo sapiens, UniProt Q9BY41); ITC; Tris-HCl buffer; 293 K).
`CC(=O)N[C@H]1[C@H]([C@H](O)[C@H](O)CNC(=O)c2ccc(-c3ccccc3)cc2)O[C@@](OCc2cn(CC(O)Cn3c([N+](=O)[O-])cnc3C)nn2)(C(=O)O)C[C@@H]1O` (stereo partly shown) gave a -TΔS of 1.09 ± 0.28 kcal/mol (CD22 (Homo sapiens, UniProt P20273); isothermal titration calorimetry).
`CCCCCCCC/C=C\CCCCCCCC(=O)NCCO` — result for “maximal open probability”: 0.54 ± 0.19 (Trpv1 (Mus musculus, UniProt Q704Y3, T557S); ion current, agonist, whole-cell patch clamp; T557S; relative to: 3 mM 2-APB).
`C[C@@H](Nc1nc2c(cnn2C(C)(C)C)c(=O)n1Cc1cccc(F)c1)c1ccc(Cl)cc1` gave a selectivity ratio of > 100 (PDE1C (Homo sapiens, UniProt Q14123); inhibitor; relative to: other PDEs over PDE1).
For `C=CC(=O)N1C[C@H](C)N(c2nc(OC[C@@]34CCCN3C[C@H](F)C4)nc3c(F)c(-c4ccc(F)c5sc(N)c(C#N)c45)c(C(F)(F)F)cc23)C[C@H]1C`, “dissociation rate constant” read 0.221 ± 0.0038 s⁻¹ (GTPase KRas, GppNHp-bound (KRAS, Homo sapiens, UniProt P01116, G12D); binding).

For quick reference, copied from above:
With `COC(=O)[C@@]1(Cc2ccccc2)C=C(C(=O)OC(C)(C)C)C(=O)CC1` the fraction bound was -0.0761 (MAPK8; D-peptide binding, inhibitor, FP peptide displacement; 62.5 µM; lower is stronger displacement).
`Cc1cn(CC(=O)N(CC(=O)N[C@H]2CCC[C@@H]2N(CC(=O)N[C@H]2COC[C@@H]2N(CC(=O)N[C@H]2COC[C@@H]2N(CC(=O)N[C@H]2COC[C@@H]2N(CC(=O)NCCOCCOCC(N)=O)C(=O)Cn2cnc3c(N)ncnc32)C(=O)Cn2cc(C)c(=O)[nH]c2=O)C(=O)Cn2cnc3c(N)ncnc32)C(=O)Cn2cnc3c(=O)[nH]c(N)nc32)[C@H]2CCC[C@@H]2NC(=O)CN(C(=O)Cn2cnc3c(=O)[nH]c(N)nc32)[C@H]2CCC[C@@H]2NC(=O)CN(C(=O)Cn2cc(C)c(=O)[nH]c2=O)[C@H]2COC[C@@H]2NC(=O)CN(C(=O)Cn2cnc3c(N)ncnc32)[C@H]2COC[C@@H]2NC(=O)CN(C(=O)Cn2cnc3c(=O)[nH]c(N)nc32)[C@H]2COC[C@@H]2N)c(=O)[nH]c1=O` has a ΔG of -19.1 ± 0.3 kcal/mol (complementary RNA; duplex formation, UV melting curve fit; PBS; 1 µM, 298 K).
For `O=C(c1ccncc1)N1CCN(CC(OCc2ccc3ccccc3c2)c2ccc(Cl)cc2Cl)CC1` (stereo not shown), “activity vs control” read 112% (ULK1 (Homo sapiens, UniProt O75385); enzyme activity, inhibitor, ADP detection; 0.1 µM).
For `CC[C@H](C)[C@@H]1NC(=O)[C@H](Cc2c[nH]c3ccccc23)NC(=O)[C@H](C)NC(=O)[C@H](Cc2ccc(O)cc2)NC(=O)CNC(=O)[C@H](Cc2ccccc2)N(C)C(=O)[C@H](C)N(C)C(=O)[C@H](Cc2ccc(O)cc2)NC(=O)[C@H](C(C)C)NC(=O)[C@H](CC(C)C)NC(=O)[C@H](Cc2ccccc2)NC(=O)CSC[C@@H](C(=O)NCC(N)=O)NC1=O`, the ΔTm was 0.21 °C (STING1 H232R; thermal stability, DSF; 100 µM).
